Assay results gathered from unrelated publications.
Parts stem from different laboratories: compare values within a part only.

Series 1
Target: RNA binding protein fox-1 homolog 2, RRM domain, GST-SBP tag (RBFOX2, Homo sapiens, UniProt O43251-10, residues 100-194)
Method: RNA Bind-n-Seq
Form: RNA
Medium: in vitro
Concentration: 365 nM
Setting: natural RNA segment, single round, ends assumed
Reference: no-protein control
Reading: higher = stronger binding
Quantity: RBNS enrichment (R)
Residues (chain): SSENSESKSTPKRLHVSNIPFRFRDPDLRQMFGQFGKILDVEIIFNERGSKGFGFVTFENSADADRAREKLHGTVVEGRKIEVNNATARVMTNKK
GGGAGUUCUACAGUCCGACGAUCCCAGCUGUUAGAGGACAGAGCCAGCUCAGUAGGACCUCCUGCUCCUCCCCCCGGCUUCGUGCCCUUUGGAUGACACAAAAACUUCAUACACCAGUGACUGUCGGGCAGGGUGGAAUUCUCGGGUGCCAA: 0.377
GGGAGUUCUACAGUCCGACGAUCUCCAAACAUUGGAAACUUUCAGAUCAUAAGGCAGAAUUUAGUAAUUUUGUGCUUCUGUUAAUGUCUAGCAUUUUAAACAUAGGAUAACAUUGUUUUGGACACUGGAAUAAUGGAAUUCUCGGGUGCCAA: 0.785
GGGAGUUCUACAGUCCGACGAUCGAUUUGCUACCAGAGCAAACUCAGUUCUGCCUGUCCCUGAAGUAUGACCAGGAGACAGCCAGUUUCAAGGGCUGUCUGCCUAGCAGAGGCCAAGUGGUUUGAAGUUAUUUUGGAAUUCUCGGGUGCCAA: 0.755
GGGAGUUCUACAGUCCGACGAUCUCGGCUUGGCUGGAAGACAGGGUGUGAGUGCGACAACAGGGGCACAGGUUGGGUUUGCCAAACGUCUAAUUACCAAGCCAGGAUUUGUGCCAACAAAGCCACAUGGCUGUUGGAAUUCUCGGGUGCCAA: 0.577
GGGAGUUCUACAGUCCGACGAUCCUAUACAUGUAAAGACACAGUGGCUCUGUGUGUCAUCAAGCAGCUGUAUUUUAUGUAUGCUUUACUGGUAAGUGUGCCAAUAAUAAACUGUGUUAAUGACCAAAGUAAGUUGGAAUUCUCGGGUGCCAA: 0.49
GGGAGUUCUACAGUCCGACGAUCACAACCACAAACCCUAUCAGAUCUAUUCACCUUUUUCAGAGCAGAUAUUUUGUAACAUUCUCUUUGCUGACCUGAAAUGACUCAUAGAUAAUACAAUCUACUUACACACAUGGAAUUCUCGGGUGCCAA: 0.564
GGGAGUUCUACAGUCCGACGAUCGAGCCAAGUGGGAGGGGAAUGUGCCUUCCCUUCACAGCAGGAGCCAAAAGGAGGCUCCACGGGCCUCCAGGCUGCCGUGAGAAACCCAUGACACAUGCCUCUGGCAAAGCUGGAAUUCUCGGGUGCCAA: 0.238
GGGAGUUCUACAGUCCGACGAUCAGGAUGAAGGCAAGACUGAUUGUUCUGAGCUGUUACCUGCCAAGGCUUUUGGAUCAUUUCGGGCCAGUAGGACCAUGGGCAGAGCUCCUUAACACUGCUGUGGUAAAUCCUGGAAUUCUCGGGUGCCAA: 0.52

Series 2
Target: RING finger protein unkempt homolog, zinc fingers 1-6, GST-SBP tag (UNK, Homo sapiens, UniProt Q9C0B0, residues 30-357)
Sequence of UniProt Q9C0B0 (30-357, looked up): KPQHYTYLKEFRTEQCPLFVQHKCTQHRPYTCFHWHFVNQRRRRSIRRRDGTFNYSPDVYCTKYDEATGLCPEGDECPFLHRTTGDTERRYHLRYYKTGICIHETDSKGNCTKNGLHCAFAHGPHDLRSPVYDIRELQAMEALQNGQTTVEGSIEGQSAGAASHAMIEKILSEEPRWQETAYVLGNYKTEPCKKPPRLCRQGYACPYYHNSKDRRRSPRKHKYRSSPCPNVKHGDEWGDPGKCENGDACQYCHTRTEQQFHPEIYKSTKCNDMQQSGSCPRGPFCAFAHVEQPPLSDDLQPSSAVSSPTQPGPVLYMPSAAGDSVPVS
Method: RNA Bind-n-Seq
Form: RNA
Medium: in vitro
Concentration: not given
Setting: RNA with constant flanks, human and mouse sites, ends assumed
Reference: input RNA pool
Reading: higher = stronger binding
Quantity: bound/input enrichment
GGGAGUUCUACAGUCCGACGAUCUUUCAUAAUCGAAGCGAUUUUAGAGUAGUUAACUUGAGAUUUCACAGCCAGUAAAUGGCUGUAUUUCUCCAGAGCUCUCAGCUCCCAUGUUUAUUCAGCCAACGAACAAACCAGACUGCACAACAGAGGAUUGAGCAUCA: 0.154 ratio
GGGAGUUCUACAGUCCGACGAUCAUAUUUUCACAUGCCUAUUUUCAUCACCGGCAGAUAUUUGAUGAAUAUGAAAAUGAAACAUUUUUAUGUCAUCGGUUUACCAAAUUUGUGAUGAAAUAUAAUCUGAUGUCGAAGGAUAACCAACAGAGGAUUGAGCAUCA: 0.253 ratio
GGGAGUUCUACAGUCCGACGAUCCACAUCAAAGCAAUUCAGAUUAAAGAACAACUUCUUGGUCAAGAAGAUUAUGAAGUAGCCCUUUCAGUGGGACAUCUGGCUUCUUUAUAUAAUUAUGACAUGAAUCAGUAUGAAAAUGCUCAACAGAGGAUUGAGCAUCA: 0.94 ratio
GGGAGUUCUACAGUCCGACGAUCUCUGGAUCUGCUUCCUGGCAACACUAGGACAAAAAUCGGUUUCAUAACAUUUGAUAGCACUAUCCAUUUCUACAGUCUUCAGGAAGGUCUCUCCCAGCCUCAGAUGCUAAUAGUUUCAGACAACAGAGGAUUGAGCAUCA: 0.736 ratio
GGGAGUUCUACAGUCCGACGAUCUUACAAAGGACAAUCUUGGGUGGAAUUGCUUUUGUUGCCAUAAAAGGAGCAUUUAAGGUUUACUUCAAACAGCAGCAAUAUUUACGUCAGGCACACCGCAAAAUCCUAAAUUAUCCAGAGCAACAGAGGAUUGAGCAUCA: 0.177 ratio
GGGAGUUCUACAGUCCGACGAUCUCCAGAAGCACUGCGUAUGAAGAUUAUUAUUAUCACCCUCCUCCCCGAAUGCCACCUCCAAUGAGAGGCCGAGGUCGUGGAGGGAGAGGUGGAUAUGGCUACCCUCCAGAUUAUUAUGGCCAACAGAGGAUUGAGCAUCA: 0.119 ratio
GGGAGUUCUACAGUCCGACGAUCCUGAGGAAAGCCCAGGCCCAGAGCAUCCUGGAAGUCCUGAAGAUAACUCAGCACUGUGCAGAAUCCCUUGGGCAGCCCCACUGCUUCCAUCCACCUUUCAUACUUUUCCUGUUGGAACUUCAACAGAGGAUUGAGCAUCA: 0.175 ratio
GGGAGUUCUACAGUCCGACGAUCAAGAUGCCAUUUCACCUUACCCUUCUAAGUGUGUGCUUCUGCAACCUUAAAGCACUAAAUACUGCUAAGAAAGGGCUUAUUGAUUAUUAUUUAAUGCCAUCAUUAUCAACUACUUCACGCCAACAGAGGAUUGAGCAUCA: 0.234 ratio

Series 3
Target: Ras GTPase-activating protein-binding protein 1, C-terminal RGG region (G3BP1, Homo sapiens, UniProt Q13283)
Sequence of UniProt Q13283 (whole entry, looked up): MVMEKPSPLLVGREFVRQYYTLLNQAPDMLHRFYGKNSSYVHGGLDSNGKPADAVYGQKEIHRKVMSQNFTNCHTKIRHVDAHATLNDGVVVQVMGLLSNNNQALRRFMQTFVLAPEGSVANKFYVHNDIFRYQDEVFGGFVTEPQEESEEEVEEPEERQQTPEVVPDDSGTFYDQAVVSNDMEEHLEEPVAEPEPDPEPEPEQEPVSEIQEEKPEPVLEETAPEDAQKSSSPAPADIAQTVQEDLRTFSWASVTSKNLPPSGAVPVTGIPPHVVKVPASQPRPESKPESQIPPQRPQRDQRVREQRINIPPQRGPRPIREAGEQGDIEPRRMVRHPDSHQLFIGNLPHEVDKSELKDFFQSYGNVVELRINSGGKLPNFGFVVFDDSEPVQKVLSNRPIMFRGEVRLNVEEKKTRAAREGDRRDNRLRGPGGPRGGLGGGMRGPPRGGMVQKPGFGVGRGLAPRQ
Method: RNA Bind-n-Seq
Form: RNA
Medium: in vitro
Concentration: 1 µM
Setting: whole 134-nt RNA, ends assumed
Added: 150 mM KCl
Reference: input library
Reading: higher = stronger binding
Quantity: log2 enrichment
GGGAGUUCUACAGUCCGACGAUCUAACUUUAGAGGAGGAUCUGAUGGAUAUGGCAGUGGACGUGGAUUUGGGGAUGGCUAUAAUGGGUAUGGAGGAGGACCUGGAGGUGGCAAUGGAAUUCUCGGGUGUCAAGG: -0.82
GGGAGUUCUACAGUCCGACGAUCUAUUGGACACAGUGCCCCGCUGAACAGCAGCUGUUCCCAGCGCCAGAGGACCCCACAGCCACAGUAGGAGCUUUGCGACCCCUACGCAACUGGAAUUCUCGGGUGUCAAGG: -1.32
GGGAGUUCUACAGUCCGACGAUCCUCAAGUCCUGUGCUACACAUCGUAUGUACCGAAUCGGGAGGGAGGGUUUGGGAAAGUAUUAUGUUACGCCGUUCGGAUCUGCACUUCCAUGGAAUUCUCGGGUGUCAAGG: 2.23
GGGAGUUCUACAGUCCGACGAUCCACAGACAACACGCACCCACACAGACACAGAGGGAAGGGGUUGUGAUGGGGACAGGGUGCACAGCAGGGCGGGGUAGGACCCCAGCCCCUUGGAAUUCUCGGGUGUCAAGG: -0.619
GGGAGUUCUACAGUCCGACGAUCGGUAAACGCCCUGCAGAAGAUAUGGAAGAGGAACAAGCAUUUAAAAGAUCUAGAAACACUGAUGAGAUGGUUGAAUUACGCAUUCUGCUUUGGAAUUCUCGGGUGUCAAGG: -1.07
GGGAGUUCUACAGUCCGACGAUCGUGGACAACGCGUACUGGCUGUGGACUUUCCAGGGACGCCUCCUGCAGAAGAACAACAAGGACCGCUUCUGCCAGCUGCUGUGGCGGCCCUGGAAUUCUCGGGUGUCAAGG: -1.07
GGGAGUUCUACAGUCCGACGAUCGUCCUGUGCUACACAUCGUAUGUACCGAAUCGGGGAAAGGGGAGGGGUUUUUUUGGGGAAAGUAUUAUGUUACGCCGUUCGGAUCUGCACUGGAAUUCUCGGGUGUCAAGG: 2.18
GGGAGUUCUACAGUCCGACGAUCGCAGGAAGUAAAAACAAAUGGAAAUGCUUCGGAUAGUGGCAGGGGUGGGGCUUGCUAAGGAAAGGGUGGGAUGGGAGUGGGUAAAGAGUUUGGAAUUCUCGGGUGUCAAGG: 1.66
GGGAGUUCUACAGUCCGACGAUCGUCCUGUGCUACACAUCGUAUGUACCGAAUCGGAAAAAGGGAAAAAGGGAAAAAGGGGAAAGUAUUAUGUUACGCCGUUCGGAUCUGCACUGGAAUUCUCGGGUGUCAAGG: -0.914

Series 4
Target: Centromere-binding protein 1, full length, His-tagged (CBF1, Saccharomyces cerevisiae, UniProt P17106, residues 1-351)
Sequence of UniProt P17106 (whole entry, looked up): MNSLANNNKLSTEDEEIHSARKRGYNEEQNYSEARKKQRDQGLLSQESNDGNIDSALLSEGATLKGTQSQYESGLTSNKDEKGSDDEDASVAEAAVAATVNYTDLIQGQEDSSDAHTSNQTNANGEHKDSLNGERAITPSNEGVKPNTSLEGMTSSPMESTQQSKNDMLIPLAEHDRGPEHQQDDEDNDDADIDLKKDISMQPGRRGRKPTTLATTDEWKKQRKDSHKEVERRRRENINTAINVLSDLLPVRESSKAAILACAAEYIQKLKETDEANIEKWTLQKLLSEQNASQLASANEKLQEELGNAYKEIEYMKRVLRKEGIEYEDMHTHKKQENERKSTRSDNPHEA
Method: competition protein-binding microarray
Form: double-stranded DNA, one strand shown
Medium: in vitro
Concentration: 2 µM
Setting: whole 60-bp probe, lowest competitor level
Added: Pho4 competitor, 0.05 µM
Reading: higher = stronger binding
Quantity: fluorescence intensity
CCTAATGCTGAAAAGCCCGTGCTTTTCCATTCTGCGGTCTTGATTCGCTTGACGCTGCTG: 88.6 a.u.
CTTTCCCGATCTTGTTACGTGGGTGTAGCACATTTGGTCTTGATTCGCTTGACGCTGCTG: 80.5 a.u.
ATTCGAAATGATTCGGGCGTGCAAATGAAGCTCTTGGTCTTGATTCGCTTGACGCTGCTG: 80.2 a.u.
ATAGTCAATGAAACATTCGTGACGGAACAATGAGATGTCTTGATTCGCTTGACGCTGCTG: 102 a.u.
CGTCCTAGTGATTGGGCTGTGGGTGCCATGAGGAAGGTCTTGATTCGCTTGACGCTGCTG: 79.3 a.u.
AGAAACGGCATCTCTCACCTGATTGTTCTCAAGATTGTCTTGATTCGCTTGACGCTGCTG: 105 a.u.
GATATCCTTTCCCATCACGTGAAGGGTGTTTCGCTGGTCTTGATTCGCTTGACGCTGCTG: 3100 a.u.
GTTACTGGTGGTTGTCATGTTTCCCAAGTTTACGCCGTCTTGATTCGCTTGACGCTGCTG: 67.5 a.u.
CATACCCAACCTTGTGTTGTGGGTGAAGATATTTGTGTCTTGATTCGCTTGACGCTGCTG: 88.9 a.u.
GTTGCTGCACTTGCTTGCGTGGGTACTTTTTGTCGGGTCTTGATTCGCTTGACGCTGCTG: 68.8 a.u.
TTACTCAGGAGATTGCACGTTGAAGCAGTACGTTGAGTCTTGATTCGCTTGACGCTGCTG: 80.1 a.u.
AGGTCCGCTGGAAAGCACGATCTCCGACGTAGTGGAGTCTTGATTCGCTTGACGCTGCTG: 58 a.u.
TGCGCAACAACTTGTCACTGAACTTTATGTCTAGAAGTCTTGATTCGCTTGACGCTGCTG: 79.7 a.u.
CGTCCTAGCGATTTCCACGTGTTTTCCATGAGGAAGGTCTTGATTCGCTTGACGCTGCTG: 811 a.u.
CGGGGTTAAGTTTGTCACACTACTTGCTTGCAGCAGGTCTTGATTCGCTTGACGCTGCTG: 78.8 a.u.
CGGGGTTAAGTTTTTCACGTGGAATGCTTGCAGCAGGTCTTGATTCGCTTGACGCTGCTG: 402 a.u.
AACTTCAGAAATTTGTCCGTGATGGTTTAATGGTCAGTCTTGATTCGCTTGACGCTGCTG: 101 a.u.
CGGGGTTAAGTTTGGCGCGTGGGTGGCTTGCAGCAGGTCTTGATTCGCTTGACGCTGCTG: 96.2 a.u.
CTAACGAAGGTTTGTCACCTCACTTACAAGCCAAGTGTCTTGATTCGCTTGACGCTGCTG: 78.7 a.u.

For quick reference, copied from above (series 4):
CTTTCCCGATCTTGTTACGTGGGTGTAGCACATTTGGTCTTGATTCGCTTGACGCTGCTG: 80.5 a.u.
ATTCGAAATGATTCGGGCGTGCAAATGAAGCTCTTGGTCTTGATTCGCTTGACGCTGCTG: 80.2 a.u.
CGGGGTTAAGTTTGTCACACTACTTGCTTGCAGCAGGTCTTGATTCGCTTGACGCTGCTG: 78.8 a.u.
GTTACTGGTGGTTGTCATGTTTCCCAAGTTTACGCCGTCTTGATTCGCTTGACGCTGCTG: 67.5 a.u.
